Values quoted from earlier work, collected from citations in different studies.
Protocols differ between the studies behind these lines. Numbers after ± are the reported error. ≈ marks a conversion by molar mass, not a printed value.
Sequence of UniProt P21918 (whole entry, looked up): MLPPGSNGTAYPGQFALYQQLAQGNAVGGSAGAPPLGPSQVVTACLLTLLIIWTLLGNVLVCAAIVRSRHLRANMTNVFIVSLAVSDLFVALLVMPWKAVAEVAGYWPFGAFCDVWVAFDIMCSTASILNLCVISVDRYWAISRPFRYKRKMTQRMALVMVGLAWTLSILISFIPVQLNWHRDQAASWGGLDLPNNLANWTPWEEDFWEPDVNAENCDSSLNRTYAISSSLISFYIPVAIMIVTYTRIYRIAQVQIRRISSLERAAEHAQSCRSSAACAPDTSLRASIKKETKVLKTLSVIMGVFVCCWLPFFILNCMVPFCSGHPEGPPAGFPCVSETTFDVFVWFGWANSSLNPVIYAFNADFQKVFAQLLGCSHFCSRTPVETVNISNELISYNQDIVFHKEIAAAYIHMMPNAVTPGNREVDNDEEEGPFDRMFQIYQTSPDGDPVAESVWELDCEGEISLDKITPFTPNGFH
Sequence of UniProt P16257 (whole entry, looked up): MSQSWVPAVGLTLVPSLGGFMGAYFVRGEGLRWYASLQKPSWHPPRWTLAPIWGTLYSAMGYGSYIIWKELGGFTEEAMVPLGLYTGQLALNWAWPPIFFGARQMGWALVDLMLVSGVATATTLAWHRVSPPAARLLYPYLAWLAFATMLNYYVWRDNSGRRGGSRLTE

CO[C@H]1[C@@H](O)[C@H]([n+]2cn(C)c3c(=O)[nH]c(N)nc32)O[C@@H]1COP(=O)([O-])OP(=O)(O)OP(=O)(O)OC[C@H]1O[C@@H](n2cnc3c(=O)[nH]c(N)nc32)[C@H](O)[C@@H]1O  relative translation efficiency (rabbit reticulocyte lysate; mRNA capped with compound; reference: m7GpppG-capped mRNA): 1.88 ± 0.4
CO[C@H]1C[C@H](O[C@H]2CC[C@@]3(C)[C@@H](C2)C[C@@H]2O[C@]24[C@@H]3[C@H](O)C(=O)[C@]2(C)[C@@H](C3=CC(=O)OC3)CC[C@]42O)O[C@@H](C)[C@@H]1O  IC50 (MDA-MB-231; cell viability; 72 h): 500 ± 50 nM
NC(=O)c1ncn([C@@H]2O[C@H](CO)[C@@H](O)[C@H]2O)n1  EC50 (human parainfluenza virus 2; viral replication, MTT; Greer): 8900 nM
COc1cc2c(cc1C)CC(N)C2 (stereo not drawn)  IC50 (dopamine transporter; [3H]dopamine uptake; synaptosomes): 19800 nM
C[C@]12CC[C@H](O)CC1=CC[C@@H]1[C@@H]2CC[C@]2(C)C(=O)CC[C@@H]12  EC50 (MCF7 Tet-off 3β-HSD aromatase; cell proliferation, agonist; mean of cell lines): 5 nM
Cc1ccccc1OCc1n(CC(=O)OC2CC(C)CCC2C(C)C)c2ccccc2[n+]1C (stereo not drawn)  MIC (Mycobacterium tuberculosis; >99% growth suppression): 10.4 µM
O=c1c(I)ccc2n1C[C@@H]1CNC[C@H]2C1  EC50 (α4β2 nAChR low-sensitivity form; agonist; Xenopus oocytes): 86 nM
NC1CC1c1ccc(NC(=O)C(Cc2ccccc2)NC(=O)OCc2ccccc2)cc1 (stereo not drawn)  IC50 (MV4-11 (AML)): 10200 ± 1200 nM
tirzepatide  HbA1c change from baseline (type 2 diabetes patients; 10 mg weekly, 40 weeks): -2.24%
CC1CCC(C(C)C)C(OC(=O)Cn2c(-c3ccc(F)cc3)[n+](C)c3ccccc32)C1.[Cl-] (stereo not drawn)  MIC (Mycobacterium tuberculosis; >99% growth suppression): 32.7 µM
CCCC(C(=O)c1ccc(O)c(OC)c1)N1CCCC1 (stereo not drawn)  IC50 (serotonin transporter, rat; serotonin uptake, inhibitor; brain synaptosomes): > 10000 nM
mastoparan  EC50 (G proteins (mammalian); G protein activation): 10000 nM
Nc1nc(-c2ccccc2)nc2c1ncn2C1OC(COS(=O)(=O)NC(=O)c2ccccc2O)C(O)C1O (stereo not drawn)  MIC (Mycobacterium tuberculosis; H37Rv, iron-deficient GAS medium; pH 6.6): 0.049 µM (≈ 0.0266 µg/mL)
O=C(O)CCCO  food-maintained responding (baboon; 320 mg/kg, first 2 h; reference: vehicle): decreased
C=CCN(CC=C)CCc1c[nH]c2ccc(Br)cc12  Ki (DRD5 (Homo sapiens, UniProt P21918)): > 10000 nM
CCC(CC)COC(=O)[C@H](C)N[P@](=O)(OC[C@H]1O[C@@](C#N)(c2ccc3c(N)ncnn23)[C@H](O)[C@@H]1O)Oc1ccccc1  EC50 (SARS-CoV-2; viral replication; HAE cells): 9.9 nM
CCC[C@H](C(=O)c1ccc2c(c1)OCO2)N1CCCC1  IC50 (norepinephrine transporter, rat; norepinephrine uptake, inhibitor; brain synaptosomes): 726 ± 150 nM
CCCCCn1cc(C(=O)c2cccc3ccccc23)c2ccccc21  IC50 (cultured autaptic hippocampal neurons; excitatory postsynaptic currents): 15 nM
CNC(C)C(=O)c1ccc(C)cc1 (stereo not drawn)  IC50 (dopamine transporter, rat; dopamine uptake, inhibitor; brain synaptosomes): 762 ± 79 nM
C[C@]12CCC(=O)CC1=CC[C@@H]1[C@@H]2CC[C@]2(C)C(=O)CC[C@@H]12  kcat (ketosteroid isomerase Y30F; substrate; pH 7.0, 3.3 % methanol): 17800 ± 100 s⁻¹
CNC(C)C(=O)c1ccc2c(c1)OCO2 (stereo not drawn)  IC50 (dopamine transporter, rat; dopamine uptake, inhibitor; brain synaptosomes): 1320 ± 133 nM
C=CCN(CC=C)CCc1c[nH]c2ccccc12  Ki (Tspo (Rattus norvegicus, UniProt P16257); binding, radioligand binding; rat kidney; added: [3H]PK11195): > 10000 nM
CCCCCc1cc(O)c2c(c1)OC(C)(C)[C@@H]1CC=C(C)C[C@@H]21  intraocular pressure decrease (rabbit alpha-chymotrypsin glaucoma model; topical, 50 µL of 0.4% w/v, submicron emulsion): 10.8 ± 2.04 mmHg
Cc1nc([C@@H](CN)NC(=O)c2ccc(-c3ccc(F)c(F)c3)[nH]2)sc1CO (single isomer, unassigned)  IC50 (HIV-1; viral replication; MT-2, IIIB; multi-cycle): 4800 ± 800 nM

For quick reference, copied from above:
tirzepatide  HbA1c change from baseline (type 2 diabetes patients; 10 mg weekly, 40 weeks): -2.24%
Cc1nc([C@@H](CN)NC(=O)c2ccc(-c3ccc(F)c(F)c3)[nH]2)sc1CO (single isomer, unassigned)  IC50 (HIV-1; viral replication; MT-2, IIIB; multi-cycle): 4800 ± 800 nM
O=C(O)CCCO  food-maintained responding (baboon; 320 mg/kg, first 2 h; reference: vehicle): decreased
